Measurements of several laboratories.
Sequence of UniProt O14920 (whole entry, looked up): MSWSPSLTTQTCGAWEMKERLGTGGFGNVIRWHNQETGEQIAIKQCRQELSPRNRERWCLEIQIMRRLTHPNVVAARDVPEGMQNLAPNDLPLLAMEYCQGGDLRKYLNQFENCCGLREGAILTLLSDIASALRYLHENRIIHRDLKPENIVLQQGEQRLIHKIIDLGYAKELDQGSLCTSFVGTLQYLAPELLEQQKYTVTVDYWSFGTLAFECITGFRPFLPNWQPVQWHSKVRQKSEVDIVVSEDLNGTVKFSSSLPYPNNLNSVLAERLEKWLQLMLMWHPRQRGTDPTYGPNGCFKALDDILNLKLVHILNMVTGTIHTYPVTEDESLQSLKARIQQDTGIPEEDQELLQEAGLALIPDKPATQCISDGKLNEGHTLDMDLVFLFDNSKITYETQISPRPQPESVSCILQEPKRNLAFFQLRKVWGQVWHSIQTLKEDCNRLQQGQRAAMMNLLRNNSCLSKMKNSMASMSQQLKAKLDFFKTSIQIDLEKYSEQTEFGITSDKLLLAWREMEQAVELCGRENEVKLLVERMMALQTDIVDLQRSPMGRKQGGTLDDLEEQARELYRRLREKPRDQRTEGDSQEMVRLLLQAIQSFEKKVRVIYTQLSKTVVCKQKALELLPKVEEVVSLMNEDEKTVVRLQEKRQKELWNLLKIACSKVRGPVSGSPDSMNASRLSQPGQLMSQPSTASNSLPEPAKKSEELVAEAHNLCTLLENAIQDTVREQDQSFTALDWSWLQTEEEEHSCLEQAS

Compound	tested on	test	system	setting	endpoint	result
COc1ccc2c(c1)CN(C(=O)CCN1CCC(Cc3ccccc3)CC1)CC[S@@+]2[O-]			male human, plasma	intravenous, 0.15 mg/kg, healthy volunteers	AUC(0-inf)	723 ng·h/mL
CC(C)n1c(Nc2cccnc2)nc2cnc(Nc3ccc(N4CCN(C)CC4)cc3)nc21			male human, plasma	oral, 100 mg, single dose, healthy volunteers	AUC(0-inf)	892 ng·h/mL
COc1ccc([C@@H]2CN(C(=O)[C@@H](O)CO)C[C@@]2(C)[C@@H](C)O)cc1OC1CN(c2ccc(C)cn2)C1			human, plasma	oral, 20 mg, single dose, healthy volunteers	AUC(0-t)	4140 ng·h/mL
CC(C)=CCC/C(C)=C/CC/C(C)=C/CC[C@@](C)(O)CCC1=C(C)C(=O)C(C)=C(C)C1=O			human, plasma	oral, 400 mg, single dose, healthy volunteers	AUC(0-t)	3240 ng·h/mL
COc1ccc([C@@H](O)c2cc(-c3ncnc4cc(N5CCOCC5)ccc34)c(F)cc2Cl)nn1			human, plasma	oral, 300 mg, multiple doses, twice daily, patients	AUC(0-t)	18300 ng·h/mL
CNc1ncc2c(/C=C/C(=O)N3CCC(OC)CC3)nn(Cc3cccc(C(F)(F)F)c3)c2n1	IKBKB (Homo sapiens, UniProt O14920)	enzyme activity, inhibitor, radiometric		1 µM	remaining activity	101%
CCc1nc2c(C)cc(N3CCN(CC(=O)N4CC(O)C4)CC3)cn2c1N(C)c1nc(-c2ccc(F)cc2)c(C#N)s1			human, plasma	oral, 600 mg, fed, healthy volunteers	AUC(0-inf)	36700 ng·h/mL
NC(=S)NN=Cc1ncccc1N			human, plasma	oral, 100 mg	AUC(0-inf)	1030 ng·h/mL
CC(=O)N(C)[C@H]1CCN(C(=O)c2cnc3c(c2)C[C@](C)(c2ccc(F)cc2)N3)C1			male human, plasma	oral, 60 mg, multiple doses, once daily	AUC(0-inf)	8.01 µM·h
CNC(=O)n1ccc2cc(Oc3ccnc(NC(=O)c4ccc(C5CCN(CCO)CC5)cc4)c3)c(OCCOC)cc21			human, plasma	oral, 35 mg, single dose, fed, healthy volunteers	AUC(0-inf)	100 ng·h/mL
FC(F)(F)c1ccc(CNc2ccc(Cc3c[nH]c4ncc(Cl)cc34)cn2)cn1			human, plasma	oral, 600 mg, single dose	AUC(0-inf)	74100 ng·h/mL
O=C(COc1ccc(Cl)cc1)NC12CC(c3nnc([C@H]4C[C@@H](OC(F)(F)F)C4)o3)(C1)C2			human, plasma	oral, 15 mg, single dose, fasted, healthy volunteers	AUC	14.5 µM·h
